Measurements from different studies.
Every numbered part comes from another study and shows a few of its results, in no order. Changes are numbered by the printed parent chain.
UniProt P41143, sequence (whole entry, looked up): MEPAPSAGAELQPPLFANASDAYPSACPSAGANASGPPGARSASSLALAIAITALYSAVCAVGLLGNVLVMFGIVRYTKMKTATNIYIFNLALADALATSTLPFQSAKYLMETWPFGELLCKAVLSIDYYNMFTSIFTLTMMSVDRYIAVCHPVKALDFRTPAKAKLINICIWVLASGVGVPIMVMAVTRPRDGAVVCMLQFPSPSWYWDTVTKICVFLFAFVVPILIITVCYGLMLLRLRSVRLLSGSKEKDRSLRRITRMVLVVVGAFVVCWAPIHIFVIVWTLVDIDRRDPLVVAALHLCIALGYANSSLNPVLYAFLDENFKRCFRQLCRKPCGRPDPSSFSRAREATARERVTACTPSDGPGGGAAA

Block 1
Target: HLA class I histocompatibility antigen, A alpha chain, allele A*25:01 (Homo sapiens, UniProt P04439)
Effect on: peptide-MHC binding
Molecule type: peptide
Concentration: concentration not given
Endpoint: binding
KLHCTERSL: inactive
TLKPGTMSV: inactive
YSTVRDLFL: inactive
LTAPCDIYV: inactive
AYSSWMYSY: inactive
ERTDLFFPV: inactive
NAMGADYYA: inactive
SLGDPLHQA: inactive

Block 2
Target: CCND3, cyclin fold, Cln2 fusion (human)
Method: yeast growth competition, sequencing
Sample: yeast
Notes: weak parent motif
Relative to: not given
Direction: higher = stronger binding
Endpoint: normalised enrichment score
Parent: viral docking peptide; YKVKRRLVFGADD; partner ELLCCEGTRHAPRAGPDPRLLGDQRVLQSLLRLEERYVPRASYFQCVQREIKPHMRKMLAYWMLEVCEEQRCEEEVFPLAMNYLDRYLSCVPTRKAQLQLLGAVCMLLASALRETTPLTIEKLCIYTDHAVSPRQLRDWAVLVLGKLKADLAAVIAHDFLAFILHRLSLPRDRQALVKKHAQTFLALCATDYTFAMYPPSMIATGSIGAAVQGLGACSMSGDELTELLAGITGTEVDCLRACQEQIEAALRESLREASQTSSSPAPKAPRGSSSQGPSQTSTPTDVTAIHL
YKVKRVLVFGADD [R6V]: 0.17
YKRKRRLVFGADD [V3R]: 0.342
YKVKRRLVFGTDD [A11T]: 0.421
YKVKRRLVFGAAD [D12A]: 0.0404
YKVKRRGVFGADD [L7G]: 0.225
YKVKRRLVYGADD [F9Y]: 0.448
YKVKRRLVFGAQD [D12Q]: 0.0467
YKVTRRLVFGADD [K4T]: 0.299

Mixed results
C[C@H](NC(=O)c1cnc2n1[C@](C)(Cc1ccc(C#N)cc1)C(=O)N2c1cc(Cl)c(F)c(Cl)c1)C(=O)NC1(c2ccccn2)CC1  inhibition (Delta-type opioid receptor (OPRD1, Homo sapiens, UniProt P41143); binding, radioligand binding; 10 µM): -0.33%
CC(C)OC(=O)[C@H](C)N[P@](=O)(OC[C@H]1O[C@@H](n2ccc(=O)[nH]c2=O)[C@](C)(F)[C@@H]1O)Oc1ccccc1  cell number (HEK-293T-ACE2; concentration not given; relative to: vehicle): 98.3%

Some of these lines once more (mixed results):
CC(C)OC(=O)[C@H](C)N[P@](=O)(OC[C@H]1O[C@@H](n2ccc(=O)[nH]c2=O)[C@](C)(F)[C@@H]1O)Oc1ccccc1  cell number (HEK-293T-ACE2; concentration not given; relative to: vehicle): 98.3%
C[C@H](NC(=O)c1cnc2n1[C@](C)(Cc1ccc(C#N)cc1)C(=O)N2c1cc(Cl)c(F)c(Cl)c1)C(=O)NC1(c2ccccn2)CC1  inhibition (Delta-type opioid receptor (OPRD1, Homo sapiens, UniProt P41143); binding, radioligand binding; 10 µM): -0.33%
